{"data": "Experimental data from different studies", "note": "Lines come from different studies, so protocols differ."}
{"SMILES": "CNC(=O)c1cc(Oc2ccc(NC(=O)Nc3ccc(Cl)c(C(F)(F)F)c3)cc2)ccn1", "target": "PKG1β (human)", "test": "kinase activity, inhibitor", "conditions": "10 µM", "inhibition": "6%"}
{"SMILES": "Cn1cc(-c2cnc3ccc(NC(=O)Nc4ccc(F)c(Br)c4)cc3n2)cn1", "target": "TBK1", "test": "KiNativ, item: TBK1 Lys2 peptide", "system": "PANC-1 cell lysate", "conditions": "10 µM", "inhibition": "4%"}
{"SMILES": "Cc1ccc(Nc2nccc(N(C)c3ccc4c(C)n(C)nc4c3)n2)cc1S(N)(=O)=O", "target": "PKG1β (human)", "test": "kinase activity, inhibitor", "conditions": "10 µM", "inhibition": "26%"}
{"SMILES": "CCN1CCC(CCNCc2cc3cc(OC)c(OC)c(OC)c3nc2SCc2ccccc2)CC1", "target": "electron transport chain", "test": "proton pumping, ACMA quenching", "system": "Pseudomonas aeruginosa inverted membrane vesicles", "conditions": "32 µg/mL, together with: NADH", "inhibition": "82%"}
{"SMILES": "CCN(CC)CCNC(=O)c1c(C)[nH]c(/C=C2\\C(=O)Nc3ccc(F)cc32)c1C", "target": "PKG1β (human)", "test": "kinase activity, inhibitor", "conditions": "0.3 µM", "inhibition": "17%"}
{"SMILES": "CCCc1cc(C)[nH]c(=O)c1CNC(=O)c1cc(-c2ccc(N3CCN(C(C)C)CC3)nc2)cc2c1cnn2C(C)C", "target": "NET, histamine H3, sigma1, sigma2", "test": "radioligand binding, PDSP panel", "conditions": "10000 nM", "inhibition": "> 50%"}
{"SMILES": "c1ccc(CSc2nc3ccccc3cc2CNCc2ccc(N3CCCCC3)cc2)cc1", "target": "electron transport chain", "test": "proton pumping, ACMA quenching", "system": "Pseudomonas aeruginosa inverted membrane vesicles", "conditions": "2 µg/mL, together with: NADH", "inhibition": "20%"}
{"SMILES": "C[C@@H]1COCCN1c1cc([C@]2(O)C[C@H]3CC[C@@H](C2)O3)c2cnn(-c3cc[nH]n3)c2n1", "target": "kinases outside PIKK family", "test": "kinase binding, KiNativ profiling", "system": "Jurkat cell lysate", "conditions": "0.3 µM", "inhibition": "< 35%"}
{"SMILES": "COc1cc2cc(CNCCN3CCN(C)CC3)c(SCc3ccccc3)nc2c(OC)c1OC", "target": "electron transport chain", "test": "proton pumping, ACMA quenching", "system": "Pseudomonas aeruginosa inverted membrane vesicles", "conditions": "32 µg/mL, together with: NADH", "inhibition": "81%"}
{"SMILES": "COC(=O)C[C@@H](NC(=O)[C@@H](Cc1ccccc1)NC(=O)C[C@@H](CC(C)C)NC(=O)[C@@H](CC(=O)OC)NC(=O)[C@@H](Cc1cccnc1)NC(=O)CCCCCNC(=O)CCCCCNC(=O)CCCc1cn(CCF)nn1)C(=O)COC(=O)c1ccc(C)s1", "target": "caspase", "test": "enzyme activity", "system": "HeLa cells", "conditions": "75 µM, 4 h, together with: staurosporine 1 µM", "inhibition": "no effect"}
{"note": "A few entries again:"}
{"SMILES": "CNC(=O)c1cc(Oc2ccc(NC(=O)Nc3ccc(Cl)c(C(F)(F)F)c3)cc2)ccn1", "target": "PKG1β (human)", "test": "kinase activity, inhibitor", "conditions": "10 µM", "inhibition": "6%"}
